Published values collected from several papers.
Numbered parts are unrelated; each lists some results of a single study. Positions count from the first letter of the parent shown.

Block 1
Target: CCNE2, cyclin fold, Cln2 fusion (human)
Method: yeast growth competition, sequencing
Sample: yeast
Setting: strong parent motif
Relative to: not given
Direction: higher = stronger binding
Quantity: normalised enrichment score
Parent: CDKN1A docking peptide (human); SKACRRLFGPVDS
Substitution = A3D; value = 0.115
Substitution = F8I; value = 0.576
Substitution = K2W; value = 1.75
Substitution = F8R; value = 0.407
Substitution = D12P; value = 3.98
Substitution = V11H; value = 3.96
Substitution = V11Y; value = 4.43
Substitution = A3V; value = 4.91
Substitution = G9K; value = 2.59
Substitution = K2T; value = 3.96
Substitution = R6L; value = 1.1
Substitution = C4Q; value = 1.21
Substitution = K2E; value = 2.24
Substitution = L7I; value = 0.882
Substitution = D12A; value = 2.91

Block 2
Target: ABI1, truncated, D143A, DHFR fusion (Arabidopsis thaliana)
Method: DHFR PCA, deep sequencing
Sample: yeast
Setting: methotrexate growth selection, single substitutions
Added: (+)-ABA 58 µM
Relative to: wild-type fitted maximum
Direction: higher = stronger binding
Quantity: relative binding score
Parent: PYL1, truncated, DHFR fusion (Arabidopsis thaliana); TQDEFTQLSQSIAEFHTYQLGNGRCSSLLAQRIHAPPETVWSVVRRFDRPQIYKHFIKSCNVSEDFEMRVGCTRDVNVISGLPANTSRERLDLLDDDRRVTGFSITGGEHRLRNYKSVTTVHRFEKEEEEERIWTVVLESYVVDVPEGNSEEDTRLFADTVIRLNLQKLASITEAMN
Substitution = L112E; value = -5.91%
Substitution = T6G; value = 92.5%
Substitution = R49Y; value = 67.4%
Substitution = E128A; value = 97.9%
Substitution = S27N; value = 99.6%
Substitution = D96L; value = 5.55%
Substitution = V143L; value = 46.6%
Substitution = V44G; value = -12.1%
Substitution = H110A; value = 20.4%
Substitution = D95H; value = 39.1%
Substitution = F5E; value = 83.2%
Substitution = D95F; value = 15.1%
Substitution = Q7A; value = 94.9%
Substitution = T17R; value = 74.8%

Block 3
Target: RNA binding protein fox-1 homolog 2, RRM domain, GST-SBP tag (RBFOX2, Homo sapiens, UniProt O43251-10, residues 100-194)
Method: RNA Bind-n-Seq
Form: RNA
Sample: in vitro
Concentration: 365 nM
Setting: natural RNA segment, single round, ends assumed
Relative to: no-protein control
Direction: higher = stronger binding
Quantity: RBNS enrichment (R)
Target sequence (chain): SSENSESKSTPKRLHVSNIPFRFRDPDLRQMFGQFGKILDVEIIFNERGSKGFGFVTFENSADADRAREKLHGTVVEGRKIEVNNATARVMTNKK
Sequence = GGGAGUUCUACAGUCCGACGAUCAAGUUAAAUGUAGAUUCACAGAUACAUUUACUUUCAGAAUCCUCAAGAGGAUUUCAAAUGCUAACUUUUAGUUUCUUGGGAUUGAUCAAGGCAAGAGAAGUGGCUUUAACUGGAAUUCUCGGGUGCCAA; value = 0.385
Sequence = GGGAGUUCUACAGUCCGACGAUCUAUCUCAUUAUUUUGAAAGAUUUAUAUAAUGAACUCUGGCUAUCUGACAAUAAAAUGGAUGAAAAAGAAGCAGCUGUUGACGUUGACUCUGUCCCCCAUGAAGCCUCCUGUGGAAUUCUCGGGUGCCAA; value = 0.476
Sequence = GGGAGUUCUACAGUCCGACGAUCUUCUUCCCUUCCUUUGUUUUCAUAAGCCUUUGGUAUCUUUCCUGCCCUUUUCCUUUGUGUACUCUAUACUGGAGUUCCCUUCUUCCUCUUGCUGUAGGCUCAAUCCCAUAUGGAAUUCUCGGGUGCCAA; value = 1.16
Sequence = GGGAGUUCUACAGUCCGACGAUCACAGUGUCAUAUACAGAUACUUCCGCAGGUCCUUAGAGUUCAAAGGGUUUUAAUCCAGGACAUAAGCAGAAAUCGCUCUCUUUAGUGAAGGGAGCAGCUGAUUUUUUCAUUGGAAUUCUCGGGUGCCAA; value = 0.278
Sequence = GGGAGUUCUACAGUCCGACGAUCAGAGUCACCACGCAGCAGUGUCCCUUCUUGGGUCUGAGUUCCUAUUAUAGGUAGGGGCCCCACCCUCUGGGCUUCCCAUCAGCGACACACACACACUUAUGGCACCAGCCUGGAAUUCUCGGGUGCCAA; value = 0.352
Sequence = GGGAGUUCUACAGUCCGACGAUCUGUCGCCAUUUGCAUUUUGAGUCAUCUUGUGUAAAUGUCACCAUGAAAGUGUUACUCAGAAUUGUCAUAGUUUUUUUCCCCCCAUCUUUGUGCUAAAACAUGGAAAAUUGUGGAAUUCUCGGGUGCCAA; value = 0.339
Sequence = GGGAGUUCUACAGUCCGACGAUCCAAAGACCACCAAACGCAGGGUGGACUCUGCUCAUUAUUCUUUGACCCAGAAAGACUGGAGAAGGUAUGUGCUUUAAGUGCUGCUCUACCUGAAAAGAAAUCCUUUAAAUUGGAAUUCUCGGGUGCCAA; value = 0.297
Sequence = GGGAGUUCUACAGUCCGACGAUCAUGCUUCGCUCCAUGGUAUGGGUGGACACCUACACUUGUCAGUAGCAGUCUUAAACUCCUCACUGCCAGGCAGGGGUGGGCUUCUGUAGGAUUUAGUGCCUGAACAUUUCUGGAAUUCUCGGGUGCCAA; value = 0.327
Sequence = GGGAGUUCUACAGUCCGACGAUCGGAAGUGUAUAUACUUUUGGCAAGUCAUACAGCUCAAAUGUGAUGAGAUUUCUGAUGUUAGAGGGAGAUGGAGAGGCUUCCUGAUGCCUCAUCUGCAGGGUCCUGUGCCUUGGAAUUCUCGGGUGCCAA; value = 0.333
Sequence = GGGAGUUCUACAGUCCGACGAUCUCUGGUGGACUAGGCAAGGUACAGUUUAUGGUUAUCCCCAUCAUCAGCUUAGGUCACUUGAACAUGUGUAAGUGGUAUAAGUAGGAGCUAAAUGCCAGGAGGAAAAAGGUUGGAAUUCUCGGGUGCCAA; value = 0.984
Sequence = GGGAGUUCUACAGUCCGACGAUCCUGUUGACGGGACCCCUGCUGUCUUAAGCUUUUCCCCAUAGUGCCUAUAGUUUCCAAAGAAACUUAACUUCCUGGGUAUUAACUUAAUUUUAUUAGAACACUGCAGUUGAUGGAAUUCUCGGGUGCCAA; value = 0.527
Sequence = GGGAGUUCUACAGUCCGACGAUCUUUGUGUAUGCGAGACAAAUCCUGUAUUGUACAGGAUAUAAAUAGAUGCAUAAAUCCUUAGAUACCUGGGUUUUUUAAUAGGUUUAGGUUUGGGUAUUGUGUUUCUGGUCUGGAAUUCUCGGGUGCCAA; value = 0.609

Block 4
Target: Hepatocyte nuclear factor 3-alpha (Foxa1, Mus musculus, UniProt P35582, residues 1-468, full length assumed)
Sequence of UniProt P35582 (whole entry, looked up): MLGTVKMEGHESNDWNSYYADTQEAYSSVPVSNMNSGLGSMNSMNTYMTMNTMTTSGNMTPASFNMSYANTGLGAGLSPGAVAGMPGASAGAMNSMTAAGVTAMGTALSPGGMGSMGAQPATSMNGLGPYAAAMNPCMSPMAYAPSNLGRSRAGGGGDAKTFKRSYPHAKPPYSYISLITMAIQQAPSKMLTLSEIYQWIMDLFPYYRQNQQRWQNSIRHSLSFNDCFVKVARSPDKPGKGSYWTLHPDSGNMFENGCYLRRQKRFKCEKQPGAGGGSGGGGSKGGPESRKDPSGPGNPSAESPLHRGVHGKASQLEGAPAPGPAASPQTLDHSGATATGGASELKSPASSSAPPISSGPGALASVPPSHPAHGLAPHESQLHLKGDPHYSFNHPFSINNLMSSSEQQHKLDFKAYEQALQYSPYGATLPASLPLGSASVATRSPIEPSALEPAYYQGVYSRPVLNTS
Method: EMSA with sequencing
Form: double-stranded DNA, one strand shown
Sample: in vitro
Concentration: 10 and 20 nM
Setting: whole designed probe, mean of two concentrations, ends assumed
Relative to: negative control set to 0
Direction: higher = stronger binding
Quantity: normalised bound fraction
Sequence = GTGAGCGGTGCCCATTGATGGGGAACAACTAACTTCTAAAGCTGTTTTGCTCTTCTTTCCTTTTGTCTTTCCTTATCATTTCCTTAAAATGACCTCCTAGATGACCTCCTAGATCCTGCTTGTTTACTTTAAACATTTTCAAGTTGGAATTCAGGATTGACTTCACTTCATTGTTCCCTGAGCAGCTGCCATCCCTGTTCATTTCAGCTTTAGCATTTATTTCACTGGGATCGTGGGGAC; value = 0.402 ratio
Sequence = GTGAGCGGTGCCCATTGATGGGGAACTCCATAAGGCACAAACTTTCAGAGACAGCAGAGCACACAAGCTTCTAGGACAAGAGCCAGGAAGAAACCACCGGAAGGAACCATCTCACTGTGTGTAAACATGACTTCCAAGCTGGCCGTGGCTCTCTTGGCAGCCTTCCTGATTTCTGCAGCTCTGTGTGAAGGTAAGCACATCTTTCTGACCTACAGCGTTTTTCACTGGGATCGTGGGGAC; value = 0.239 ratio
Sequence = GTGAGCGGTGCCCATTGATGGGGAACATCTTCCCCCTCTTCCTTGCCCCACCAGCTCACCTACGGGGGTTATTTGCACAAAGGAAAATAAATAAAGCCGGCATTCGTTAACCCTCTTCACGCGCATACTGCTGTTTGCTCTGGATCTAACATGGTCCTTTGGCGACGCCAGGCTCCGGGAGAGCAAAGCACCGTGTCAGGGCCATGATCCGGGGTGGCCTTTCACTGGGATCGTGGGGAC; value = 0.384 ratio
Sequence = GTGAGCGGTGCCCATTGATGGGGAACATCTTCCCCCTCTTCCTTGCCCCACCAGCTCACCTTCCCGGGTTATTTGCAGATAGGAAAATAAATAAAGCCGGCATTCGTTAACGCAGTTCACGCGCATACTGCTGTTTGCTCTGCATGAATCATGGTCCTTACGCGACGCCAGGCTCCGGGAGAGCAAAGCACCGTGTCAGGCGCATGATCCGGGCTCGCCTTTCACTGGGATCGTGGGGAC; value = 0.354 ratio
Sequence = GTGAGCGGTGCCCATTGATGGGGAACGCTTAAACCAATAAAACATTTATCTCACAGTTTCTGTGGGTCAGGAATCCAGGAGTGGCTTTGCTGGGTGGTTCTGCCTCAGGGTATCTGCCCTGTTTACAGTCATGCTGTTGGCTGGGCTGCAGAGGCTGGAAGCCTCTTTGGGGCCAGATGATTTGTTTCTGAGCTTGTTCATGTGGTTGTGGTCAGAAGGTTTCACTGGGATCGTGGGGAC; value = 0.181 ratio
Sequence = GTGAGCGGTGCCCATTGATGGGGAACGAAGGAAATAATGGAGCCAACCATGCATATAACCTCAGGGAGAACATTCTAGGTAGAGGGAACAGCAAGTGCAAAGGCCCTGAAGTGGGGGTTTGTTTACCTTCTGCAGTTGCACAATCACAGGCCAGTACAATTGGAATGGATGGGAAATGTAAAAGAGAGAAGTTGAAAAGGCCAGGTGCAGTGGCTCATGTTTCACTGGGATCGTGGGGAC; value = 0.389 ratio
Sequence = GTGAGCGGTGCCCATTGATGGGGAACGCTCACGCAGAAATGCATTGGAATGTCAGGAAATTGTGTGTATTTGATGTATTTTACCTGTTGCCTAGAGAGCCCACACAGTGATGCAGGTGCCTGTTTACATTGGCTGATTGCCCGGACTTTGGAAATGCAATTATCCCCCACCACCCCCTCAGCCACTTTCTCCAGCGGACTAGGAGGGGCTGAGTGGTGCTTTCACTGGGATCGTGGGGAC; value = 0.249 ratio
Sequence = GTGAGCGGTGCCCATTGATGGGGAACGTGGCACCATTTCCTTATTAAAGCTCTATGCAGAAGGAGTGGAGCTACTTTGTATGCTTATTCTTTGTTCTTCTACCACTTTCTCTTTCCCATGTTTACATTACAAGGGAGAAGTTAAGAAAATAAAAGAAGCCAACTGGGAAAGGCCACATAGCAGATTTGAGGCTTTGGGAGTAGGAGCAAGGAGCACAAATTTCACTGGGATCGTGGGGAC; value = 0.396 ratio

Some of these lines once more (block 3):
Sequence = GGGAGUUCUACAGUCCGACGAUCUUCUUCCCUUCCUUUGUUUUCAUAAGCCUUUGGUAUCUUUCCUGCCCUUUUCCUUUGUGUACUCUAUACUGGAGUUCCCUUCUUCCUCUUGCUGUAGGCUCAAUCCCAUAUGGAAUUCUCGGGUGCCAA; value = 1.16
Sequence = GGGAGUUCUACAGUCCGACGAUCACAGUGUCAUAUACAGAUACUUCCGCAGGUCCUUAGAGUUCAAAGGGUUUUAAUCCAGGACAUAAGCAGAAAUCGCUCUCUUUAGUGAAGGGAGCAGCUGAUUUUUUCAUUGGAAUUCUCGGGUGCCAA; value = 0.278
Sequence = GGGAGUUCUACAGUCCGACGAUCAGAGUCACCACGCAGCAGUGUCCCUUCUUGGGUCUGAGUUCCUAUUAUAGGUAGGGGCCCCACCCUCUGGGCUUCCCAUCAGCGACACACACACACUUAUGGCACCAGCCUGGAAUUCUCGGGUGCCAA; value = 0.352
Sequence = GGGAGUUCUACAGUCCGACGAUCUGUCGCCAUUUGCAUUUUGAGUCAUCUUGUGUAAAUGUCACCAUGAAAGUGUUACUCAGAAUUGUCAUAGUUUUUUUCCCCCCAUCUUUGUGCUAAAACAUGGAAAAUUGUGGAAUUCUCGGGUGCCAA; value = 0.339
Sequence = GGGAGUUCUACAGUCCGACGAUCCAAAGACCACCAAACGCAGGGUGGACUCUGCUCAUUAUUCUUUGACCCAGAAAGACUGGAGAAGGUAUGUGCUUUAAGUGCUGCUCUACCUGAAAAGAAAUCCUUUAAAUUGGAAUUCUCGGGUGCCAA; value = 0.297
Sequence = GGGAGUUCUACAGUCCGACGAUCAUGCUUCGCUCCAUGGUAUGGGUGGACACCUACACUUGUCAGUAGCAGUCUUAAACUCCUCACUGCCAGGCAGGGGUGGGCUUCUGUAGGAUUUAGUGCCUGAACAUUUCUGGAAUUCUCGGGUGCCAA; value = 0.327
Sequence = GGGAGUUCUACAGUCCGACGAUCGGAAGUGUAUAUACUUUUGGCAAGUCAUACAGCUCAAAUGUGAUGAGAUUUCUGAUGUUAGAGGGAGAUGGAGAGGCUUCCUGAUGCCUCAUCUGCAGGGUCCUGUGCCUUGGAAUUCUCGGGUGCCAA; value = 0.333
